# Measurements of several laboratories.
# Each line is one published result; not all experiments were run side by side. ± marks the error that the study gave.
Compound,assay,test system,setting,Cmax
O=C([O-])CCCCCCCNC(=O)c1ccccc1O.[Na+],,healthy male and female subjects,"dose not given, without semaglutide, geometric mean",1580 ng/mL
CS(=O)(=O)c1ccc([C@@H](O)[C@@H](CF)NC(=O)C(Cl)Cl)cc1,,"chicken (Arbor Acres), plasma","oral, 20 mg/kg, added: saline pretreatment",7240 ± 1200 ng/mL
CNC(=O)c1cc(Oc2ccc(NC(=O)Nc3ccc(Cl)c(C(F)(F)F)c3)cc2)cc[n+]1[O-],,"patients, plasma","oral, 400 mg twice daily, steady state, geometric mean, added: rifampin 600 mg oral",1460 ng/mL
COc1cc(N2CCC(N3CCN(C)CC3)CC2)ccc1Nc1ncc(Cl)c(Nc2ccccc2P(C)(C)=O)n1,,"healthy subjects, plasma","oral, 90 mg, single dose, geometric mean",353 ng/mL
CCCCCCCCCCCCCCCC(=O)N[C@@H](CCC(=O)NCCCC[C@@H]1NC(=O)[C@H]([C@@H](C)CC)NC(=O)[C@@H](NC(=O)[C@@H]2CCCN2C(=O)[C@H](Cc2ccccc2)NC(=O)[C@H](Cc2c[nH]cn2)NC(=O)[C@@H](NC(=O)[C@H](CC(=O)O)NC(=O)CC(C)C)[C@@H](C)O)CSSC[C@@H](C(=O)N[C@@H](CCCCN)C(N)=O)NC(=O)CNC(=O)[C@H](CCCCN)NC(=O)[C@H](CO)NC(=O)[C@H](CCCNC(=N)N)NC(=O)[C@@H]2CCCN2C(=O)[C@H](CCC(=O)O)NC(=O)[C@H](Cc2ccccc2)NC1=O)C(=O)O,,"healthy volunteers, plasma","subcutaneous, 30 mg single, lyophilised formulation",287 ± 90 ng/mL
CCCS(=O)(=O)N[C@H]1C[C@@H](N(C)c2ncnc3[nH]ccc23)C1,,"healthy volunteers, plasma, total","oral, 100 mg single dose, alone",420 ng/mL
CNC(=O)c1ccc(-c2cnc3ncc(Cc4ccc5ncccc5c4)n3n2)cc1F,,"Japanese patients, plasma","oral, 400 mg twice daily, cycle 1 day 1, fasting",4020 ng/mL
N[C@@H]1c2ccccc2OC12CCN(c1cnc3c(N4CCCc5ncccc54)n[nH]c3n1)CC2,,"advanced metastatic solid tumour patients, plasma","oral, 60 mg once daily, cycle 1 day 15, geometric mean",850 ng/mL
CC[C@H](C)CCCCC(=O)N[C@@H](CCN)C(=O)N[C@H](C(=O)N[C@@H](CCN)C(=O)N[C@H]1CCNC(=O)[C@H]([C@@H](C)O)NC(=O)[C@H](CCN)NC(=O)[C@H](CCN)NC(=O)[C@H](CC(C)C)NC(=O)[C@@H](Cc2ccccc2)NC(=O)[C@H](CCN)NC1=O)[C@@H](C)O,LC-MS/MS,"mild renal impairment, plasma","intravenous infusion, 0.75 mg/kg single dose over 1 h, arithmetic mean",3600 ng/mL
CCNC(=O)[C@@H]1CCCN1C(=O)[C@H](CCCNC(=N)N)NC(=O)[C@H](CC(C)C)NC(=O)[C@@H](CC(C)C)NC(=O)[C@H](Cc1ccc(O)cc1)NC(=O)[C@H](CO)NC(=O)[C@H](Cc1c[nH]c2ccccc12)NC(=O)[C@H](Cc1c[nH]cn1)NC(=O)[C@@H]1CCC(=O)N1,,"healthy premenopausal women, plasma","oral, 4 mg twice daily, day 29",4.8 ± 6.2 ng/mL
C[C@H]1CN(C(=O)CC#N)[C@]12CCN(c1ncnc3[nH]ccc13)C2,,"healthy adults, plasma","oral, 1.5 mg single dose, median",9.38 ng/mL
C[C@H]1[C@H]2N(C(=O)CN(C)N2C(=O)NCc2ccccc2)[C@@H](Cc2ccc(OP(=O)(O)O)cc2)C(=O)N1Cc1cccc2cccnc12,,"patients, plasma","intravenous infusion, 280 mg/m2 over 4 h, mean",1950 ng/mL
COC(=O)c1ccc2c(c1)NC(=O)/C2=C(\Nc1ccc(N(C)C(=O)CN2CCN(C)CC2)cc1)c1ccccc1,,"healthy volunteers, plasma","oral, 150 mg single dose, alone",21.5 ng/mL
CCCCCCCOc1ccc(CCC(N)(CO)CO)cc1C(F)(F)F.Cl,,"healthy men, plasma","oral, 0.125 mg, day 21",0.879 ng/mL
OC[C@H]1O[C@@H](c2ccc(F)c(Cc3cc4ccccc4s3)c2)[C@H](O)[C@@H](O)[C@@H]1O,,"Japanese type 2 diabetes patients, plasma","oral, 50 mg/day, day 1",1230 ± 289 ng/mL
Cc1nn(C)cc1S(=O)(=O)NC(=O)c1ccc(-n2ccc(OCC(C)(C)C(F)(F)F)n2)nc1N1C[C@@H](C)CC1(C)C,,"human, plasma","oral, standard ETI dose",3900 ng/mL
COc1nnc2ccc(N3CCC(c4ccc(OCCN5CCN(C)C(=O)[C@H]5C)cc4)CC3)nn12,,"patients, plasma","oral, 20 mg twice daily, single dose, monotherapy",172 nM
CCNC(=O)[C@@H]1CCCN1C(=O)[C@H](CCCNC(=N)N)NC(=O)[C@H](CC(C)C)NC(=O)[C@@H](CC(C)C)NC(=O)[C@H](Cc1ccc(O)cc1)NC(=O)[C@H](CO)NC(=O)[C@H](Cc1c[nH]c2ccccc12)NC(=O)[C@H](Cc1c[nH]cn1)NC(=O)[C@@H]1CCC(=O)N1,,healthy female volunteers,"oral, 4 mg single dose, fasted",10.2 ± 9.6 ng/mL
OC[C@H]1O[C@@H](c2cc(Cc3ccc(C4CC4)cc3)c(Cl)c3c2CCO3)[C@H](O)[C@@H](O)[C@@H]1O,,"healthy Korean adults, fasted, plasma","oral, 0.3 mg single dose, separate tablets, added: co-administered drug 50 mg",4.52 ± 1.18 ng/mL
CC[C@H](Nc1ncnc2[nH]cnc12)c1oc2ccccc2c(=O)c1-c1cccc(F)c1,,"patients, Cohort-3, plasma","oral, 800 mg twice daily, added: romidepsin 14 mg/m2",5790 ± 2430 ng/mL
C[C@@](Cc1ccc(O)c(O)c1)(NN)C(=O)O,,"Parkinson's disease patients, plasma","oral, low levodopa Cmax subgroup (<9 µmol/L), median",200 nM
CC(C)c1nc(N(C)S(C)(=O)=O)nc(-c2ccc(F)cc2)c1/C=C/[C@@H](O)C[C@@H](O)CC(=O)O,,"healthy volunteers, plasma","oral, 10 mg single dose, day 1, given alone, BCRP probe",3.6 ng/mL
CCNCc1cc(Nc2ccnc3cc(Cl)ccc23)ccc1O,,"healthy volunteers, plasma","oral, dose not given, fixed-dose combination",748 ng/mL
C=C(F)C(=O)N1CCN(c2nc(OC[C@@H]3CCCN3C)nc3c2CCN(c2cccc4cccc(Cl)c24)C3)C[C@@H]1CC#N,,"cancer patients, plasma",600 mg,558 ng/mL
C=CC(=O)NC1CCN(c2ncc3ncnc(Nc4ccc(Oc5ccc6c(c5)ncn6C)c(C)c4)c3n2)CC1,measured: total radioactivity,"healthy male volunteers, plasma","oral solution, 60 mg, 14C-labelled, geometric mean",1450 nM
O=C(c1cccnc1-c1ccncc1)N1CCC(O)(Cc2ccccc2)CC1,,"healthy Japanese adults, plasma","oral, 200 mg single dose, arithmetic mean",850 ng/mL
CCc1nc2c(C)cc(N3CCN(CC(=O)N4CC(O)C4)CC3)cn2c1N(C)c1nc(-c2ccc(F)cc2)c(C#N)s1,,"healthy volunteers, plasma","oral, 1000 mg once daily multiple doses",20700 ng/mL
C#C[C@]1(O)CC[C@H]2[C@@H]3CCC4=CC(=O)CC[C@@H]4[C@H]3CC[C@@]21C,radioimmunoassay,"HIV-infected women on protease inhibitor therapy, serum","oral, 0.35 mg, steady state, geometric mean",2.76 ng/mL
C[C@H](NC(=O)/C(C#N)=C/c1cccc(Br)n1)c1ccccc1,LC-MS/MS,"patients, plasma","oral, 1 mg/kg, cycle 1 day 8",11.7 ng/mL
N[C@@H](Cc1ccc(O)c(O)c1)C(=O)O,,"Parkinson's disease patients, plasma","oral, high carbidopa AUC subgroup (11.5 µmol·h/L), median",11700 nM
Cc1ccc(C(=O)NC2CC2)cc1-n1ncc(C(=O)c2cccc(C#N)c2)c1N,,healthy volunteers,"oral, 10 mg single dose, mean observed",118 ng/mL
C[C@@H](N)C1CCN(S(=O)(=O)c2cccc3cnccc23)CC1,,"healthy volunteers, fasted, plasma","oral, 250 mg",58 ng/mL
COc1c(O)cc(C(=O)O)cc1O,LC-MS/MS,"male Ross broilers, serum","oral, 0.49 mg/kg gallic acid",140 ± 90 nM
C[C@@H]1CCO[C@H]2Cn3cc(C(=O)NCc4ccc(F)cc4F)c(=O)c(O)c3C(=O)N12,"population PK, post-hoc","children, 6 to <10 kg, plasma","oral, 20 mg dispersible tablet, steady state, geometric mean",7100 ng/mL
O=C(O)c1cc(O)c(O)c(O)c1,,"chicken Ross broiler, male, serum","oral, 0.49 mg/kg",510 ± 260 nM
CCc1nc(C(N)=O)c(Nc2ccc(N3CCC(N4CCN(C)CC4)CC3)c(OC)c2)nc1NC1CCOCC1,,"patients, plasma","oral, 120 mg once daily, cycle 1 day 15, median",282 ng/mL
